Experimental data from different studies.
Numbered parts are unrelated; each lists some results of a single study.
Chain of UniProt Q9UPE1 (whole entry, looked up): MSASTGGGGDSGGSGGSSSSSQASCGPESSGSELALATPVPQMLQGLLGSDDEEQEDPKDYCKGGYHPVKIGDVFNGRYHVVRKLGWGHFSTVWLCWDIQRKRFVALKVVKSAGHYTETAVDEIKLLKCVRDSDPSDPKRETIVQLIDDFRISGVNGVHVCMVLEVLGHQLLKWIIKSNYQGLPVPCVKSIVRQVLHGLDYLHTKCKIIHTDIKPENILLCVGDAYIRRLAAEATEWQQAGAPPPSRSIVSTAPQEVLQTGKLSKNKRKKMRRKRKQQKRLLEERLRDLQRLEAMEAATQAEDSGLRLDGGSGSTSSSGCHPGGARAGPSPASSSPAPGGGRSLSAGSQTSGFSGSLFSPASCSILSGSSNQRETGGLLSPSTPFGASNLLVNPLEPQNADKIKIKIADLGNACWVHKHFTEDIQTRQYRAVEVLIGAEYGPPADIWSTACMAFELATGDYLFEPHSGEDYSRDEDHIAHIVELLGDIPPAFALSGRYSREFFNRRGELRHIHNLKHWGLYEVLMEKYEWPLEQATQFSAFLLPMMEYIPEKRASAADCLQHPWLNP
Chain of UniProt P25098 (whole entry, looked up): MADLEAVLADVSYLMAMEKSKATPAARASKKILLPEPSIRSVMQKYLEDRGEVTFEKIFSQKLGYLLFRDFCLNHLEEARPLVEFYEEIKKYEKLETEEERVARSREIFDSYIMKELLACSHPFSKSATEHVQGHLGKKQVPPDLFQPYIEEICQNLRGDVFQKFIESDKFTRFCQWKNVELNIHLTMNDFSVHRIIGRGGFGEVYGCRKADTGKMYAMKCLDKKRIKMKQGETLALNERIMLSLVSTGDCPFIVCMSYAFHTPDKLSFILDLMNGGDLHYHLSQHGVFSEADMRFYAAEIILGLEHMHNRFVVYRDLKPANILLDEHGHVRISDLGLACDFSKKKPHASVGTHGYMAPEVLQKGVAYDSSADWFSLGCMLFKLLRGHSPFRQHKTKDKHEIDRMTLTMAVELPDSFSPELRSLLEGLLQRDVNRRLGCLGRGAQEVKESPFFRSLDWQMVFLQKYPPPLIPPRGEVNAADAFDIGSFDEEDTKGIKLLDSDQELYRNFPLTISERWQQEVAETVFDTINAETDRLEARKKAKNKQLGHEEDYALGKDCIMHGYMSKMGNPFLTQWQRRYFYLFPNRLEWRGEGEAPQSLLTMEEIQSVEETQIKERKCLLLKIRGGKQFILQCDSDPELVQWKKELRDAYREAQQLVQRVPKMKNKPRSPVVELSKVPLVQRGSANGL
Chain of UniProt P42336 (whole entry, unmodified, looked up): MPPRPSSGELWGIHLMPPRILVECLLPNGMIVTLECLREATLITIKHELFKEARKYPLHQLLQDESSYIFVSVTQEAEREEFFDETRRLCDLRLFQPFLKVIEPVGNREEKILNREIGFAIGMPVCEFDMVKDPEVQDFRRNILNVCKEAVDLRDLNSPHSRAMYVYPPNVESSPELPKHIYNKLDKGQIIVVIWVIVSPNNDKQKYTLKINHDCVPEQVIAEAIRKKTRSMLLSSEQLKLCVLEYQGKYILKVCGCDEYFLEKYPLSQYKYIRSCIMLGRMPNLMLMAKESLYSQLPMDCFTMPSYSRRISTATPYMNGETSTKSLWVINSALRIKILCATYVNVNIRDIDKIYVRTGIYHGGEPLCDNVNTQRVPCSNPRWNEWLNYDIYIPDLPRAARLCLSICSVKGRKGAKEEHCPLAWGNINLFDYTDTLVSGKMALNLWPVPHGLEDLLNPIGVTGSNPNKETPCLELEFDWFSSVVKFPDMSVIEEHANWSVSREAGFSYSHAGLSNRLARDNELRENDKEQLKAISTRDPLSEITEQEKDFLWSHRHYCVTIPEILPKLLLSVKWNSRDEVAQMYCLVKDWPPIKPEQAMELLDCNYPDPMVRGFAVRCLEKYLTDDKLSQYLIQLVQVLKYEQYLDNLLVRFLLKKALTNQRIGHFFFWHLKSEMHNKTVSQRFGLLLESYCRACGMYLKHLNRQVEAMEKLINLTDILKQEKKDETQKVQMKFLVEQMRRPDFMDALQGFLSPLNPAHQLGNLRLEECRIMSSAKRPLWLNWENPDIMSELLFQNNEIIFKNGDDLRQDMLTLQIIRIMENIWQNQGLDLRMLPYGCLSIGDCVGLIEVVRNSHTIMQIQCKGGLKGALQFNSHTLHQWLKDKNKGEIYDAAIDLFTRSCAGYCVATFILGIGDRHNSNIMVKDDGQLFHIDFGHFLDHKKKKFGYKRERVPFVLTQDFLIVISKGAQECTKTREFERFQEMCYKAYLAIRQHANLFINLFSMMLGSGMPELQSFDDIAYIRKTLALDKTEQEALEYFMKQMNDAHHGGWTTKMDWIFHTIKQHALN
Chain of UniProt Q8IVH8 (whole entry, looked up): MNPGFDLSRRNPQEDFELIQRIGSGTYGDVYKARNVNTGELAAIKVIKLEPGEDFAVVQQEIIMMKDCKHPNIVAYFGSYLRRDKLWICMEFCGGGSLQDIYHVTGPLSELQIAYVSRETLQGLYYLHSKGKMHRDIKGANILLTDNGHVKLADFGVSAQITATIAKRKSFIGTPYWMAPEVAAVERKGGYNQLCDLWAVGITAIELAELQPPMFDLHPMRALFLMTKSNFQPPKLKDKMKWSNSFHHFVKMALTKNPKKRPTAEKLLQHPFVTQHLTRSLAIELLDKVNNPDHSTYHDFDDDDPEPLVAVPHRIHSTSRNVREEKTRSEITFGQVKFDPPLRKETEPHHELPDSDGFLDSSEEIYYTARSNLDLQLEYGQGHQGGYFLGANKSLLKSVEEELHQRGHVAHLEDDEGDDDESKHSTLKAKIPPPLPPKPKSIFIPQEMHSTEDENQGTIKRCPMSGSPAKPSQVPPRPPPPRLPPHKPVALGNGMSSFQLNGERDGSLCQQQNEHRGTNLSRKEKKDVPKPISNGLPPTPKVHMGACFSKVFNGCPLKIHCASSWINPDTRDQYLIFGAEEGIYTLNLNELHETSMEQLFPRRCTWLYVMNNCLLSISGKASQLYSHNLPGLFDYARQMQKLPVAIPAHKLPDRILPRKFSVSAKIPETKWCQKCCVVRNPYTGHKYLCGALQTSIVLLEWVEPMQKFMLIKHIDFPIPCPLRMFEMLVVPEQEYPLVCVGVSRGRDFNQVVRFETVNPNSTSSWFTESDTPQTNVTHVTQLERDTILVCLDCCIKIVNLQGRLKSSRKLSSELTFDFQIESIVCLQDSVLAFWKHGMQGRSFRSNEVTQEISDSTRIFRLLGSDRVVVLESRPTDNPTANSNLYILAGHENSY
Chain of UniProt P49840 (whole entry, looked up): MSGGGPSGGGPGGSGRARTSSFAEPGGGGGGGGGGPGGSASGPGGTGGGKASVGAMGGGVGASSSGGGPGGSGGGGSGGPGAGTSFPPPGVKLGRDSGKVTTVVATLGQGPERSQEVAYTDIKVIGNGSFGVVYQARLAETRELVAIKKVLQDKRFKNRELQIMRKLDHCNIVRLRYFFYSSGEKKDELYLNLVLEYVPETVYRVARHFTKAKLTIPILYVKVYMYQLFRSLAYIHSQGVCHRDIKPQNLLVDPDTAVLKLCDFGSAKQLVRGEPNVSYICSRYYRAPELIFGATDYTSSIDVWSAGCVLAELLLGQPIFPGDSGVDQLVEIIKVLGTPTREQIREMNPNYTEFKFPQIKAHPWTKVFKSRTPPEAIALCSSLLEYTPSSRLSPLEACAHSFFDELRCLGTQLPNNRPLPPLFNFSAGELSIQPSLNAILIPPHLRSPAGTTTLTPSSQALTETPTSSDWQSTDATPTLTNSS
Chain of UniProt Q15375 (whole entry, looked up): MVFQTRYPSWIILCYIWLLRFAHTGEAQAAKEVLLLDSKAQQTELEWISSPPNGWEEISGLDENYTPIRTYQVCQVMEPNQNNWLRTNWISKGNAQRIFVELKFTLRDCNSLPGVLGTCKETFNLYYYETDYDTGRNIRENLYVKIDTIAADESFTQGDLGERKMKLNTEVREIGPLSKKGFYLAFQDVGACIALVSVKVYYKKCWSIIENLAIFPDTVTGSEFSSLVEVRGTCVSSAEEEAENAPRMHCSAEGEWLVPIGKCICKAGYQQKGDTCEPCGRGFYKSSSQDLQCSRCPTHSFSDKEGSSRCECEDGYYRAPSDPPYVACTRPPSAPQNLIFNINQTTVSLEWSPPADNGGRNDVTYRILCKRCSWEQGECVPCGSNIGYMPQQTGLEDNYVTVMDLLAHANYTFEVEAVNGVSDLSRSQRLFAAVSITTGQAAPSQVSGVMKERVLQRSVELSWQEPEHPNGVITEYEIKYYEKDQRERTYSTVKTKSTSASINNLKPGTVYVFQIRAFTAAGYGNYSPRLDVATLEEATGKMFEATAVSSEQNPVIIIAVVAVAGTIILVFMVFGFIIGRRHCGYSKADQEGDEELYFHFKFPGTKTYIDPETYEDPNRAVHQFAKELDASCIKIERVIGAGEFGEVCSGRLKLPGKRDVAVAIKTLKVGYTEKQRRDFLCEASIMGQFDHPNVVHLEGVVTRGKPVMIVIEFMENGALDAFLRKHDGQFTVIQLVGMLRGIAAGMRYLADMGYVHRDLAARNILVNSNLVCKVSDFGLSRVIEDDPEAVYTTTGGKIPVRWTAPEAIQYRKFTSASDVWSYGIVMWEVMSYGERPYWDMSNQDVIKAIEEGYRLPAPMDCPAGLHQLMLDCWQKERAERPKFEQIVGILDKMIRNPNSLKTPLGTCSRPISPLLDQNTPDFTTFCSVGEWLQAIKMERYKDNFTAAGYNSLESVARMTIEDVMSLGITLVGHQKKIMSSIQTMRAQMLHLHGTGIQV
Chain of UniProt Q00535 (whole entry, looked up): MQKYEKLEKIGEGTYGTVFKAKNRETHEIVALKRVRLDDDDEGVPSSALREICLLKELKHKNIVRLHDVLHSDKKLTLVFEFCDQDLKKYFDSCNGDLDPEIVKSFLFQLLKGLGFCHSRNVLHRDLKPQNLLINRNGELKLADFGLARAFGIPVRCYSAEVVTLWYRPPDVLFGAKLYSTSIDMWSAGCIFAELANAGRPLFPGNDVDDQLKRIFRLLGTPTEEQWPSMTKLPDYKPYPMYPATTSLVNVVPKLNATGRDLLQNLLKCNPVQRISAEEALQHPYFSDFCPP

Study 1
Cell line: HaCaT
Concentration: 100 µM
Time: 36 h
Compound | viability [%]
O=C(O)[C@@H]1CSCN1 | 87.7
COC(=O)C1=C(C)NC(C)=C(C(=O)OCCN(C)Cc2ccccc2)C1c1cccc([N+](=O)[O-])c1 (centres unmarked) | 7.92
Cc1cccc(C)c1NC(=O)C1CCCCN1C (centres unmarked) | 91.8
NS(=O)(=O)c1cc2c(cc1Cl)N=CNS2(=O)=O | 88.3
CCC(C)(Oc1ccc(C2(c3ccc(OC(C)(CC)C(=O)O)cc3)CCCCC2)cc1)C(=O)O (centres unmarked) | 99.3
COC(=O)Nc1nc2cc(C(=O)c3ccc(F)cc3)ccc2[nH]1 | 17.2
CN(C)CCC=C1c2ccccc2CCc2ccccc21 | 4.92
CCn1cc(C(=O)O)c(=O)c2ccc(C)nc21 | 75.5
CC(CCc1ccc(O)cc1)NCC(O)c1ccc(O)cc1 (centres unmarked) | 58.6
CN1CCC(=C2c3ccccc3CCn3c(C=O)cnc32)CC1 | 84.5
CCOC(=O)[C@H](CCc1ccccc1)N[C@@H](C)C(=O)N1[C@H](C(=O)O)C[C@@H]2CCC[C@@H]21 | 99.2
CCN(CC)CCCC(C)Nc1c2ccc(Cl)cc2nc2ccc(OC)cc12 (centres unmarked) | 5.2
Cn1c(=O)c2c(ncn2CCO)n(C)c1=O | 96.1
O=C1Nc2ccc(Cl)cc2[C@@](C#CC2CC2)(C(F)(F)F)O1 | 6.08
CC(CCc1ccccc1)NCC(O)c1ccc(O)c(C(N)=O)c1 (centres unmarked) | 51.4
O=C(c1ccc(F)cc1)C1CCN(CCn2c(=O)[nH]c3ccccc3c2=O)CC1 | 91.5
O=C(O)c1cccnc1Nc1cccc(C(F)(F)F)c1 | 72.5
N=C(N)c1ccc(OCCCCCOc2ccc(C(=N)N)cc2)cc1 | 5.06
C=C1[C@H](CO)[C@@H](O)C[C@@H]1n1cnc2c(=O)[nH]c(N)nc21 | 93.4
c1cnc(N2CCN(Cc3ccc4c(c3)OCO4)CC2)nc1 | 83.9

Study 2
Species: human
Sample: microsomes or S9
Concentration: 2 µM
Time: 0.5 h
Compound | remaining compound [%]
COC(=O)c1nccnc1C1=NC(C)(C(C)C)C(=O)N1 (centres unmarked) | 68.3
COc1cc(=O)n(C)cc1C(=O)Nc1ccccc1Br | 1.9
CC(=O)Nc1cccc(C2CCN(C(=O)c3cc4cc(-c5ccc(Cl)cc5)c5ccccc5c4s3)CC2)c1 | 79
Cc1ccc(S(=O)(=O)N[C@@H]2c3c(Cl)cccc3[C@H](C(=O)OC(C)C)[C@H]2C(=O)OC(C)C)cc1 | < 1
Cc1nn(C(=O)c2cccnc2)c(C)c1Cc1c(F)cccc1Cl | < 1
OCCC1(CNc2cnc3cc(Cl)c(Cl)cc3n2)CCOC1 (centres unmarked) | 33.1
COc1cc(=O)[nH]cc1C(=O)N1Cc2ccccc2OC(C)(C)C1 | > 99
COc1cc(=O)n(C)cc1C(=O)NCc1nc(C)no1 | 92.5
Cn1cc(S(=O)(=O)N2CCc3sccc3C2c2cccs2)c(=O)n(C)c1=O (centres unmarked) | 4.4
c1ccc2c(c1)CC(n1ccnc1-c1cc3n(n1)CCNC3)CO2 (centres unmarked) | > 100
Clc1ccc(Oc2nc3ccccc3o2)c2ncccc12 | 20.4
Cc1cc(C)n(C2CCN(C(=O)c3sc4ncn(C)c(=O)c4c3C)C2)n1 (centres unmarked) | 24.9
CN1Cc2ccccc2N(CCN2CCC(c3ccc(Cl)cc3C(=O)NCCN3CCN(C(=O)OC(C)(C)C)CC3)CC2)C1=O | 3.95
COC(=O)c1ccc(-c2ccccc2NS(C)(=O)=O)s1 | 64

Study 3
SMILES: O=C1NC(=O)/C(=C/c2ccc3nccnc3c2)S1
Observed: enzyme activity
Mode: inhibitor
Concentration: 0.5 µM
Relative to: control
target | remaining activity [%]
SGK1 (Homo sapiens, UniProt O00141) | 95
BMX (Homo sapiens, UniProt P51813) | 98.6
NUAK1 (Homo sapiens, UniProt O60285) | 92.8
MYLK (Homo sapiens, UniProt Q15746) | 97.1
CSK (Homo sapiens, UniProt P41240) | 86.3
GSK3A (Homo sapiens, UniProt P49840) | 88.8
PRKCE (Homo sapiens, UniProt Q02156) | 101
RPS6KA1 (Homo sapiens, UniProt Q15418) | 80.7
CSF1R (Homo sapiens, UniProt P07333) | 110
PIM2 (Homo sapiens, UniProt Q9P1W9) | 100
EPHB2 (Homo sapiens, UniProt P29323) | 94.7
FGFR4 (Homo sapiens, UniProt P22455) | 98
GRK2 (Homo sapiens, UniProt P25098) | 93.3
SRPK3 (Homo sapiens, UniProt Q9UPE1) | 91.4
FLT3 (Homo sapiens, UniProt P36888) | 95.2
GRK6 (Homo sapiens, UniProt P43250) | 97
Aurora kinase C (AURKC, Homo sapiens, UniProt Q9UQB9) | 95.6
EPHA7 (Homo sapiens, UniProt Q15375) | 96.7
PAK2 (Homo sapiens, UniProt Q13177) | 98.4
RPS6KB1 (Homo sapiens, UniProt P23443) | 91.2
PRKCG (Homo sapiens, UniProt P05129) | 105

Study 4
Structure (SMILES): C[C@H](c1ccc(F)cc1)N(Cc1cccc(C(=O)O)c1)C(=O)c1cnc2ccccc2c1
Concentration: 1 µM
target | observed | method | remaining binding [%]
PIK3CA (Homo sapiens, UniProt P42336, E545K) | cell-free assay | competition with immobilised ligand | 100
EPHB6 (Homo sapiens, UniProt O15197) | cell-free assay | competition with immobilised ligand | 88
PIK3CA (Homo sapiens, UniProt P42336, E545A) | cell-free assay | competition with immobilised ligand | 100
PRKACA (Homo sapiens, UniProt P17612) | cell-free assay | competition with immobilised ligand | 100
CDK5 (Homo sapiens, UniProt Q00535) | cell-free assay | competition with immobilised ligand | 100
MERTK (Homo sapiens, UniProt Q12866) | cell-free assay | competition with immobilised ligand | 95
CDC42BPA (Homo sapiens, UniProt Q5VT25) | cell-free assay | competition with immobilised ligand | 100
GRK2 (Homo sapiens, UniProt P25098) | cell-free assay | competition with immobilised ligand | 80
TEC (Homo sapiens, UniProt P42680) | binding | competition with immobilised ligand | 80
SYK (Homo sapiens, UniProt P43405) | cell-free assay | competition with immobilised ligand | 87
CSNK1G2 (Homo sapiens, UniProt P78368) | cell-free assay | competition with immobilised ligand | 100
PRKACB (Homo sapiens, UniProt P22694) | cell-free assay | competition with immobilised ligand | 82
MAPK4 (Homo sapiens, UniProt P31152) | cell-free assay | competition with immobilised ligand | 93
SRPK3 (Homo sapiens, UniProt Q9UPE1) | cell-free assay | competition with immobilised ligand | 92
CDK9 (Homo sapiens, UniProt P50750) | cell-free assay | competition with immobilised ligand | 89
MAK (Homo sapiens, UniProt P20794) | binding | competition with immobilised ligand | 100
PTK2 (Homo sapiens, UniProt Q05397) | cell-free assay | competition with immobilised ligand | 93
PNCK (Homo sapiens, UniProt Q6P2M8) | cell-free assay | competition with immobilised ligand | 100
EGFR (Homo sapiens, UniProt P00533, G719C) | cell-free assay | competition with immobilised ligand | 90
PAK5 (Homo sapiens, UniProt Q9P286) | cell-free assay | competition with immobilised ligand | 93
Tyrosine-protein kinase ABL1, phosphorylated (ABL1, Homo sapiens, UniProt P00519, F317I) | binding | – | 100
MAP4K3 (Homo sapiens, UniProt Q8IVH8) | cell-free assay | competition with immobilised ligand | 90
PRPF4B (Homo sapiens, UniProt Q13523) | cell-free assay | competition with immobilised ligand | 100
Ribosomal protein S6 kinase alpha-5, C-terminal kinase domain (RPS6KA5, Homo sapiens, UniProt O75582) | cell-free assay | competition with immobilised ligand | 100
BUB1 (Homo sapiens, UniProt O43683) | cell-free assay | competition with immobilised ligand | 89

Some of these lines once more (study 3):
target | remaining activity [%]
Aurora kinase C (AURKC, Homo sapiens, UniProt Q9UQB9) | 95.6
SGK1 (Homo sapiens, UniProt O00141) | 95
SRPK3 (Homo sapiens, UniProt Q9UPE1) | 91.4
BMX (Homo sapiens, UniProt P51813) | 98.6
GSK3A (Homo sapiens, UniProt P49840) | 88.8
PRKCE (Homo sapiens, UniProt Q02156) | 101
PRKCG (Homo sapiens, UniProt P05129) | 105
PIM2 (Homo sapiens, UniProt Q9P1W9) | 100
NUAK1 (Homo sapiens, UniProt O60285) | 92.8
